Experimental data pooled from the literature.
Numbered parts are unrelated; each lists some results of a single study. Values joined by “and” are separate records of one study, mostly repeats; a detail may differ.
UniProt P54756, sequence (whole entry, looked up): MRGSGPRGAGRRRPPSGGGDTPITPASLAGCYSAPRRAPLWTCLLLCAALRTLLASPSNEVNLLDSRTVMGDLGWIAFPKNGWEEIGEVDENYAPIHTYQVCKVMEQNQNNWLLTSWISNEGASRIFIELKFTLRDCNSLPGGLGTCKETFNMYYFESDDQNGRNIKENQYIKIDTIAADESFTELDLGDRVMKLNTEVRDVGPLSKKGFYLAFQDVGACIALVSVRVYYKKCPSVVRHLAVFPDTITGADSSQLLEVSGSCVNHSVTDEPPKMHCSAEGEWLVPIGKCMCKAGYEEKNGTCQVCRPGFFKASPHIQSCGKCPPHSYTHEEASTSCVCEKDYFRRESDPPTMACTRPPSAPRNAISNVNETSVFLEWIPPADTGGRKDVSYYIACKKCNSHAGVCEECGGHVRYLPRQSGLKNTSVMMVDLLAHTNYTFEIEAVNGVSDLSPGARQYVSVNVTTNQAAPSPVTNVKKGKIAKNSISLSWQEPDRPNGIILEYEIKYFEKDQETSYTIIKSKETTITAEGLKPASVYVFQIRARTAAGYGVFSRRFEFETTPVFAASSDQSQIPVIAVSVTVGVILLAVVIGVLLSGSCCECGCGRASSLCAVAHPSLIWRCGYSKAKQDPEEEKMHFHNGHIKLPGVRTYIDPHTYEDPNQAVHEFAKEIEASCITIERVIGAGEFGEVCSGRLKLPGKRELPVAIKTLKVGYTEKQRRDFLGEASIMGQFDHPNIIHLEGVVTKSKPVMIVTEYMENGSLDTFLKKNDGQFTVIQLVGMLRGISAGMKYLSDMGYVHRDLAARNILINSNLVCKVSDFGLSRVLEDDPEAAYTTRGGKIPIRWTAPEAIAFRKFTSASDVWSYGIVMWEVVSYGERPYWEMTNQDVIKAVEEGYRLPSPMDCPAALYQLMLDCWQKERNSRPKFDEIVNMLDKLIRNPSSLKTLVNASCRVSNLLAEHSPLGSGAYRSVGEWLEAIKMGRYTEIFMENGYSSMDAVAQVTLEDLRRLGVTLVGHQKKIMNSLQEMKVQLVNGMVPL
UniProt P09619, sequence (whole entry, looked up): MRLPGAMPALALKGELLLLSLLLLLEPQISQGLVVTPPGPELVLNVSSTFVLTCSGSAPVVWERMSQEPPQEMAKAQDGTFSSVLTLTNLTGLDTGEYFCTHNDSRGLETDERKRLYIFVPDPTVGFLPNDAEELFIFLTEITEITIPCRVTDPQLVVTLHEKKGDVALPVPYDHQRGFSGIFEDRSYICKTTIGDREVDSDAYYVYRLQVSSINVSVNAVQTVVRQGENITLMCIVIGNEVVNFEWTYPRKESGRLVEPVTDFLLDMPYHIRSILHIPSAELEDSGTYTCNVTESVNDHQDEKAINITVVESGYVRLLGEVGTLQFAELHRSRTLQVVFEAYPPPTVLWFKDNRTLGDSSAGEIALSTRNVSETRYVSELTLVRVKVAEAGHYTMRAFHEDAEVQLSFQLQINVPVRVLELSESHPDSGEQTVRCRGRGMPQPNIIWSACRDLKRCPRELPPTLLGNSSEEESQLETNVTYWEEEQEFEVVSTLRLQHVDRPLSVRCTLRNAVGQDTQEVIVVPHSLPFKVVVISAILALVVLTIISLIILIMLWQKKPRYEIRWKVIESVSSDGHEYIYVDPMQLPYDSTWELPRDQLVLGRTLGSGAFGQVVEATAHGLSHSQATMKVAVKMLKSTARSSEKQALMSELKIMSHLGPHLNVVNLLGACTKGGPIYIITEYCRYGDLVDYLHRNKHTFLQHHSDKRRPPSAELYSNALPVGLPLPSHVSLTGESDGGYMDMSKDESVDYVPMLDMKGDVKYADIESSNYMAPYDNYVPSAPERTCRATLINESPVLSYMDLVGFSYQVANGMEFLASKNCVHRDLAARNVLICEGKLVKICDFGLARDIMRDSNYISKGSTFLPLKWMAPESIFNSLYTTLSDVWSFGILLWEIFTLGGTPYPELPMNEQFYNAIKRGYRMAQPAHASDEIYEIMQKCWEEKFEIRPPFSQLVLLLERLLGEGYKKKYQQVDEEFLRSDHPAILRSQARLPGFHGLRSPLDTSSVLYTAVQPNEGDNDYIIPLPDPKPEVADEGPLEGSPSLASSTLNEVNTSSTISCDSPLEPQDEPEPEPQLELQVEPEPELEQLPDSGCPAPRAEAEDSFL
UniProt P06239, sequence (whole entry, looked up): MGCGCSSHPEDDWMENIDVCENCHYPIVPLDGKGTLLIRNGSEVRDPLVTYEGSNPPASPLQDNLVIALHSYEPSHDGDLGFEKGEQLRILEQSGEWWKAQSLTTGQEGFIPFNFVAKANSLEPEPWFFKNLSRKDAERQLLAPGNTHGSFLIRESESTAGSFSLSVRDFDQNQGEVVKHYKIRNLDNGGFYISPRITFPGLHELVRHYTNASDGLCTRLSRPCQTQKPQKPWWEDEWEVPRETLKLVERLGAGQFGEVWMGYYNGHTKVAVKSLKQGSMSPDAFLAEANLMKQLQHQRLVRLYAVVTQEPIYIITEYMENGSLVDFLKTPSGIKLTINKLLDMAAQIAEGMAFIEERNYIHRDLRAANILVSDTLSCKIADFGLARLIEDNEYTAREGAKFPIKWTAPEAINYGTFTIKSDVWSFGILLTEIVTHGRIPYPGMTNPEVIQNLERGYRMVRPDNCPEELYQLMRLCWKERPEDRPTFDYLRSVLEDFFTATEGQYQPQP
UniProt P45983, sequence (whole entry, looked up): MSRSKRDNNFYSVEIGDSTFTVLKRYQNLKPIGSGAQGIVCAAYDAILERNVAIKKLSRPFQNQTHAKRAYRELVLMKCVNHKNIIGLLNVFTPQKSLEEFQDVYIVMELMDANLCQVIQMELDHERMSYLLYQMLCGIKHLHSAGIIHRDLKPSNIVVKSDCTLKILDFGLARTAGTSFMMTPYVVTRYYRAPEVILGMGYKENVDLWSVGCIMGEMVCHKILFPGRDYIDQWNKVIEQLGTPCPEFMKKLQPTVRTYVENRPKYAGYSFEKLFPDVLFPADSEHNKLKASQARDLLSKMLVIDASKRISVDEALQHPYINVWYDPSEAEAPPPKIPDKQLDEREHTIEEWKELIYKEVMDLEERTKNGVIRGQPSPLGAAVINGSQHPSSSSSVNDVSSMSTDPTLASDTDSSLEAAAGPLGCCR
UniProt O94768, sequence (whole entry, looked up): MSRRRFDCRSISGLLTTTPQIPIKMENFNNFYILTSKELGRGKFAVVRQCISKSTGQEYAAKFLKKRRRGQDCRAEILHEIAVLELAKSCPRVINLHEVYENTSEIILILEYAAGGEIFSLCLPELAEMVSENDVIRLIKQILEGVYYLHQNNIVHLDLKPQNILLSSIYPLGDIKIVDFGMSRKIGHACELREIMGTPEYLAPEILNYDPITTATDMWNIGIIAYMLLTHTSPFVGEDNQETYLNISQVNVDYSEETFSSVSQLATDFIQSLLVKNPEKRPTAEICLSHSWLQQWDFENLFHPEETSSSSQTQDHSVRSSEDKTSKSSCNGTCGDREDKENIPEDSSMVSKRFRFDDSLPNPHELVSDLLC
UniProt Q9HC98, sequence (whole entry, looked up): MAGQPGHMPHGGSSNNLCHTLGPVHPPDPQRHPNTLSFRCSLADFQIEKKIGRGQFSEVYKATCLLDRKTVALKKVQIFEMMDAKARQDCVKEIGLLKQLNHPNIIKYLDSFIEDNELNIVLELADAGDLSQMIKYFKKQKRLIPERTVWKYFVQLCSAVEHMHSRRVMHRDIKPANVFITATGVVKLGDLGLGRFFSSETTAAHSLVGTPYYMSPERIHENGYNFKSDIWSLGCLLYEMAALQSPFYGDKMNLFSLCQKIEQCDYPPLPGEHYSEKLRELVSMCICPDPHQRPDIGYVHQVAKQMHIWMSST
UniProt O75582, sequence (whole entry, looked up): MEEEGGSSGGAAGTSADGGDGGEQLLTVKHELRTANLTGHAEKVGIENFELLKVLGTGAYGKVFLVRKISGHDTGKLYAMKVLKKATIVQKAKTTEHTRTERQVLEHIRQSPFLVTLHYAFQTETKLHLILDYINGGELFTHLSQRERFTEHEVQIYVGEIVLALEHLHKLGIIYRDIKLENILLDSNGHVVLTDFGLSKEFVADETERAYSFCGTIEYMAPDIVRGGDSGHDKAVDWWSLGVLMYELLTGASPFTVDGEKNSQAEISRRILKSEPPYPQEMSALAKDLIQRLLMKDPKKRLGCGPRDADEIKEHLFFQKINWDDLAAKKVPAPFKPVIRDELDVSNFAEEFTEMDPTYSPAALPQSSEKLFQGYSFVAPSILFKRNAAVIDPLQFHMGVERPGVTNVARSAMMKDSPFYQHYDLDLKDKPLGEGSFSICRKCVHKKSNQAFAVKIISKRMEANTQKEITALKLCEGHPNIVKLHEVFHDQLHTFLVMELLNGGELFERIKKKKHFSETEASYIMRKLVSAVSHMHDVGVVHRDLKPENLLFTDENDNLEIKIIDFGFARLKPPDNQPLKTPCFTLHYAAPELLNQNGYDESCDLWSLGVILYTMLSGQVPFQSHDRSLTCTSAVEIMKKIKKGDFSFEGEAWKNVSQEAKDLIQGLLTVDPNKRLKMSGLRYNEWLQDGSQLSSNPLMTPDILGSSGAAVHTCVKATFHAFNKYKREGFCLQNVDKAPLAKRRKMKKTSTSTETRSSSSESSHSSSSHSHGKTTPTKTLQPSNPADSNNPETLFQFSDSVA
UniProt P28482, sequence (whole entry, looked up): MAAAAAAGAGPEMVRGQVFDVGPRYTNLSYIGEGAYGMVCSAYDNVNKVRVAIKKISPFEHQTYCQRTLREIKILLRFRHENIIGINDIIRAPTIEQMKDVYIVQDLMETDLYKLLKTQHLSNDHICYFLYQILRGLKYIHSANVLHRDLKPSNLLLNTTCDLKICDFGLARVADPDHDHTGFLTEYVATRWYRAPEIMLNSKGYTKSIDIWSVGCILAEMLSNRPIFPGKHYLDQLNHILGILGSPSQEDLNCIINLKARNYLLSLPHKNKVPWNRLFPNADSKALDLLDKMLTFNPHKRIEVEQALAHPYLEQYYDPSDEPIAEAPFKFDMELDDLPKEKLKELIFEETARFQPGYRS

Series 1
Compound: O=C(O)[C@H]1[C@H](Cn2nnc3ccccc3c2=O)CC[C@@H]1C(=O)c1ccc(OCCC2CCOCC2)cc1
Observed: cell-free assay
Technique: competition with immobilised ligand
Tested at: 1 µM
Endpoint: remaining binding
STK17B (Homo sapiens, UniProt O94768): 100%
MAPK8 (Homo sapiens, UniProt P45983): 72%
PAK2 (Homo sapiens, UniProt Q13177): 69%
Ribosomal protein S6 kinase alpha-5, C-terminal kinase domain (RPS6KA5, Homo sapiens, UniProt O75582): 100%
FLT3 (Homo sapiens, UniProt P36888, D835Y): 96%
WNK2 (Homo sapiens, UniProt Q9Y3S1): 99%
COQ8A (Homo sapiens, UniProt Q8NI60): 100%
NEK6 (Homo sapiens, UniProt Q9HC98): 100%
BMPR1B (Homo sapiens, UniProt O00238): 95%
PDGFRB (Homo sapiens, UniProt P09619): 88%
LCK (Homo sapiens, UniProt P06239): 78%
FRK (Homo sapiens, UniProt P42685): 100%
Aurora kinase A (AURKA, Homo sapiens, UniProt O14965): 97%
MATK (Homo sapiens, UniProt P42679): 83%
EPHA5 (Homo sapiens, UniProt P54756): 100%
CDK2 (Homo sapiens, UniProt P24941): 100%
MAPK1 (Homo sapiens, UniProt P28482): 100%

Series 2
Target: Myotonin-protein kinase (DMPK, Homo sapiens, UniProt Q09013)
Observed: enzyme activity
Mode: inhibitor
Tested at: 0.5 µM
Relative to: control
Endpoint: remaining activity
Residues (Q09013 1-629): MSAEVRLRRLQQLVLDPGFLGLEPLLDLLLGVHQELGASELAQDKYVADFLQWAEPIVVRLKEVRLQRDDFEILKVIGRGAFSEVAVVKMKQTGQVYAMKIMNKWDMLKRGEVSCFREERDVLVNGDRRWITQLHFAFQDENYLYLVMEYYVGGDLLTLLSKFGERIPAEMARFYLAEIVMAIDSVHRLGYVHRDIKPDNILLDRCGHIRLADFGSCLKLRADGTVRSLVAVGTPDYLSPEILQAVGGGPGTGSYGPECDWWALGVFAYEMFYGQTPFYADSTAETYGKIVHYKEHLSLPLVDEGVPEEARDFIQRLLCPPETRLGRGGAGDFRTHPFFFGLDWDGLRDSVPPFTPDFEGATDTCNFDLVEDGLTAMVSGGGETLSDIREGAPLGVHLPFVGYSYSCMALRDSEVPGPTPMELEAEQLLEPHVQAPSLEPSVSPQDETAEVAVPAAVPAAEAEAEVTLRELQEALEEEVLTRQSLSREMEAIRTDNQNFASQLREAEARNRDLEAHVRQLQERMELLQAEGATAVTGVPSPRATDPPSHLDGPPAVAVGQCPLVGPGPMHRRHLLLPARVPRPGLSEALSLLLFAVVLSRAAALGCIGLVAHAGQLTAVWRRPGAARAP
Cc1cn(-c2cc(NC(=O)c3ccc(C)c(Nc4nccc(-c5cccnc5)n4)c3)cc(C(F)(F)F)c2)cn1: 98.1%
COc1cc2c(cc1OC)-c1[nH]nc(Nc3cccc(F)c3)c1C2: 109%
O=C(Nc1cccc(Nc2nccc(Nc3cccc(C(F)(F)F)c3)n2)c1)C1CC1: 101%
CN([C@@H](Cc1ccc(OS(=O)(=O)c2cccc3cnccc23)cc1)C(=O)N1CCN(c2ccccc2)CC1)S(=O)(=O)c1cccc2cnccc12: 108%
N#Cc1c(NC(=O)c2cccc3ccccc23)sc2c1CCCC2: 109%
CCN(CC)CCNC(=O)c1c(C)[nH]c(/C=C2\C(=O)Nc3ccc(F)cc32)c1C: 97.7%
c1ccc(-c2cnc(Nc3ccc(OCCN4CCCC4)cc3)s2)cc1: 110%
Nc1cccc(-c2cc3c(Oc4cccc(O)c4)ncnc3[nH]2)c1: 95.2%
O=C1C(Cl)=C(N2C(=O)CCC2=O)C(=O)c2ccccc21: 98.5%
CCN(CC)CCNC(=O)c1c(C)[nH]c(/C=C2\C(=O)Nc3ccc(Cl)cc32)c1C: 102%
COc1cc2ncnc(Nc3cccc(Cl)c3)c2cc1OC: 102%
Ic1cccc(CSc2nnc(-c3ccncc3)o2)c1: 105%

Series 3
Cell line: HaCaT
Tested at: 100 µM
Time: 18 h
Endpoint: viability
O=C1O[C@H](CO)[C@@H](O)[C@H](O)[C@H]1O: 107%
C[C@@H](O[C@H]1OCCN(Cc2nc(O)n(P(=O)(O)O)n2)[C@H]1c1ccc(F)cc1)c1cc(C(F)(F)F)cc(C(F)(F)F)c1: 15.7%
NCCNc1ccc(NCCN)c2c1C(=O)c1ccncc1C2=O: 24.6%
CCCc1cc(C(N)=S)ccn1: 111%
O=C(O)C[C@H](O)C[C@H](O)/C=C/c1c(C2CC2)nc2ccccc2c1-c1ccc(F)cc1: 88.4%
CN1C(C)(C)CCCC1(C)C: 93%
CCN(CC)C(=S)SSC(=S)N(CC)CC: 53%
C=CC[C@@H]1/C=C(\C)C[C@H](C)C[C@H](OC)[C@H]2O[C@@](O)(C(=O)C(=O)N3CCCC[C@H]3C(=O)O[C@H](/C(C)=C/[C@@H]3CC[C@@H](O)[C@H](OC)C3)[C@H](C)[C@@H](O)CC1=O)[C@H](C)C[C@@H]2OC: 25%
COC(=O)Nc1nc2ccc(C(=O)c3ccccc3)cc2[nH]1: 43.9%
CC(C)NCC(O)COc1ccc(CCOCC2CC2)cc1 (stereo not shown): 99.8%
C=C1[C@H](CO)[C@@H](O)C[C@@H]1n1cnc2c(=O)[nH]c(N)nc21: 107%
CC(S)C(=O)NCC(=O)O (stereo not shown): 107%
CC1=C(C(=O)O)N2C(=O)[C@@H](NC(=O)[C@H](N)c3ccc(O)cc3)[C@H]2SC1: 118%
Cc1c(-c2ccccc2)oc2c(C(=O)OCCN3CCCCC3)cccc2c1=O: 48.8%

Series 4
SMILES: C=CC(=O)N1CCN(c2nc(=O)n(-c3c(C)ccnc3C(C)C)c3nc(-c4c(O)cccc4F)c(F)cc23)[C@@H](C)C1
Observed: binding
Technique: NanoBRET
Cells: HEK293 (live)
Direction: lower = stronger binding
Endpoint: target engagement
HRAS G12V: GTPase HRas (HRAS, Homo sapiens, UniProt P01112, G12V)
HRAS: GTPase HRas (HRAS, Homo sapiens, UniProt P01112)
HRAS G12V; 0.3468 µM: 85.2% and 94% and 109% and 93.6%
HRAS G12V; 0.8239 µM: 92.4% and 108% and 97.4% and 97%
HRAS; 1.301 µM: 82.6% and 77.9% and 84.4%
HRAS; 0.3468 µM: 80.7% and 93.6% and 91.4%
HRAS G12V; 1.301 µM: 87.6% and 96.6% and 92.5% and 105%
HRAS; 0.8239 µM: 86% and 89.3% and 84.9%

For quick reference, copied from above (series 2):
Nc1cccc(-c2cc3c(Oc4cccc(O)c4)ncnc3[nH]2)c1: 95.2%
CN([C@@H](Cc1ccc(OS(=O)(=O)c2cccc3cnccc23)cc1)C(=O)N1CCN(c2ccccc2)CC1)S(=O)(=O)c1cccc2cnccc12: 108%
N#Cc1c(NC(=O)c2cccc3ccccc23)sc2c1CCCC2: 109%
O=C(Nc1cccc(Nc2nccc(Nc3cccc(C(F)(F)F)c3)n2)c1)C1CC1: 101%
CCN(CC)CCNC(=O)c1c(C)[nH]c(/C=C2\C(=O)Nc3ccc(F)cc32)c1C: 97.7%
